Published values of several laboratories.
Numbered parts are unrelated; each lists some results of a single study. Changes are numbered by the printed parent chain.

Sample 1 — target: Sox-I, HMG box (Salpingoeca helianthica); method: Spec-seq; form: double-stranded DNA, one strand shown; medium: in vitro; concentration: not given; setting: whole probe, mean of replicates; relative to: not given; reading: lower = stronger binding; all sequences stand within: GAGTCGTCTCGTCAGCAC … CCGTAGAGCACTCAGGTC
Construct (chain): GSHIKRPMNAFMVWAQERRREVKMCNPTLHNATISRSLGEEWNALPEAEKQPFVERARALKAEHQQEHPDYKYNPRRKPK
Oligonucleotide	relative binding energy
CATCGGC	1.14 ln ratio
AACTGTT	-1.25 ln ratio
AGCAGTT	0.0222 ln ratio
CATACTA	-0.0255 ln ratio
CATACTT	0.203 ln ratio
AGCTGTT	-0.877 ln ratio
CCACGTT	0.634 ln ratio
TGACGTT	0.744 ln ratio
CATCCTC	0.388 ln ratio
CATTGGC	1.02 ln ratio
CATATTT	0.61 ln ratio
TGGCGTT	0.855 ln ratio
CATCGTC	0.918 ln ratio
CATTGTT	-2.71 ln ratio
GGTCGTT	0.846 ln ratio
CATGATT	0.612 ln ratio
CGGTGTT	0.51 ln ratio
CATGTCC	1.11 ln ratio
CATAACC	0.601 ln ratio
TAGTGTT	-0.0462 ln ratio
CATGTGT	0.817 ln ratio

Sample 2 — method: DHFR PCA, deep sequencing; medium: yeast; with: (+)-ABA 0.0091 µM; relative to: wild-type fitted maximum; reading: higher = stronger binding
Target: ABI1, truncated, D143A, DHFR fusion (Arabidopsis thaliana)
Setting: methotrexate growth selection, single substitutions
Parent: PYL1, truncated, DHFR fusion (Arabidopsis thaliana); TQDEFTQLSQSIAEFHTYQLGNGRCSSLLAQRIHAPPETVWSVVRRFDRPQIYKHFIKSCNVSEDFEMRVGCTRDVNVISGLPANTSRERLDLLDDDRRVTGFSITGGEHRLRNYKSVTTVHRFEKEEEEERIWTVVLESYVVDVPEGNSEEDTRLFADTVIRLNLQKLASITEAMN
Substitution	relative binding score [%]
Q19F	-1.74
Y53G	-2.09
E131P	72.6
I105F	-8.99
S104H	-8.25
T135Q	3.94
L112K	-1.18
P37R	-0.0609
D153T	-2.54
Q31K	9.51
N85Y	68.8
W134N	7.63
V76N	-0.69
T39Y	0.817
R123P	22.9

Sample 3 — target: CCND3, cyclin fold, Cln2 fusion (human); method: yeast growth competition, sequencing; medium: yeast; setting: weak parent motif; relative to: not given; reading: higher = stronger binding
Parent: CDC25A docking peptide (human); PPHRRRLLFACSP
Substitution	normalised enrichment score
PPHRYRLLFACSP [R5Y]	0.0643
PPHRRMLLFACSP [R6M]	0.227
PPHRRRLLFVCSP [A10V]	0.102
PPHRRRNLFACSP [L7N]	0.149
APHRRRLLFACSP [P1A]	0.072
PHHRRRLLFACSP [P2H]	0.211
PPHKRRLLFACSP [R4K]	0.19
PPFRRRLLFACSP [H3F]	0.178
PPHARRLLFACSP [R4A]	0.124
PPHRKRLLLACSP [R5K F9L]	0.0198
PPHRRRLLYACSP [F9Y]	0.163
PPHRIRLLFACSP [R5I]	0.162
PPHNRRLLFACSP [R4N]	0.214
PPHRRRLLFACST [P13T]	0.18
PPHRRRLLDACSP [F9D]	0.0756
DPHRRRLLFACSP [P1D]	0.115
YPHRRRLLFACSP [P1Y]	0.159
PPHRRRLLFACSI [P13I]	0.0913

Sample 4 — method: protein-binding microarray; form: double-stranded DNA, one strand shown; medium: in vitro; concentration: 2540 nM top; setting: 60-bp whole probe; with: salmon DNA 0.4 mg/ml; relative to: random background probes; reading: higher = stronger binding; all sequences stand within: GCCTAGCAC … GTCTTGATTCGCTTGACGCTGCTG
Target: Interferon regulatory factor 3, full length, phosphomimetic (IRF3, Homo sapiens, UniProt Q14653, residues 1-427, S386D/S396D/S398D/S402D/T404D/S405D)
UniProt Q14653, sequence (whole entry, unmodified, looked up): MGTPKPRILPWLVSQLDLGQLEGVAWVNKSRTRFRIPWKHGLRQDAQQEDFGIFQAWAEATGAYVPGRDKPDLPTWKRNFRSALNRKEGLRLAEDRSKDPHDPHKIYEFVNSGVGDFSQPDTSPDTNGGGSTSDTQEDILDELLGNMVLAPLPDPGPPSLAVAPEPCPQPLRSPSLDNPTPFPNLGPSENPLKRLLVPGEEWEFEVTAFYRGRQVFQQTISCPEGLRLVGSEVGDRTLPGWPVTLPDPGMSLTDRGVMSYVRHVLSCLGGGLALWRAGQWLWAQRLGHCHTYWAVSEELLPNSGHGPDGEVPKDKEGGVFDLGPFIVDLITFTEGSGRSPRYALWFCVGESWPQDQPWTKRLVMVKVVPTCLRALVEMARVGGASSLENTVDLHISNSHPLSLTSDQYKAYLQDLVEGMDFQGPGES
Oligonucleotide	fitted relative affinity [z-score]
TCACGGATGATCTCTCTGACTGTGCTA	-0.655
GACGGTCTCCTTCGCCTGACGTGCTAG	0.407
TTAGGACTGCTACTGCTTAAGTGCTAG	-0.644
GCCGGTATCCTACTGCTGACGTGCTAG	3.08
TTAGGTTTCGGTTTCGGTGAGTGCTAG	10.9
GGCGGACTGCTACTGCTGACGTGCTAG	-0.846
TTAGGTATCGCCTATCGGTTAGTGCTA	0.287
TTAGATATCGGGTATCGATGAGTGCTA	-0.0234
GTCGAACTGAGTATCGAGACGTGCTAG	0.429
GACGGACTGGCGTATCGGGACGTGCTA	-0.425
GCCGATATCAGTCTCGAGACGTGCTAG	1.65
GAAGATCTCAGACTGGAGACGTGCTAG	-0.373
GACGGTCTGGACTTTCGGGACGTGCTA	0.0838
TCAAGACTTTCTTTCAAACTGTGCTAG	0.534
CTGTGGGAGGCCCGCGGGAGGTGCTAG	-1.3
GACGGTCTCCTTCTCCTTACGTGCTAG	3.96
TCCATTTTGGTTTTCATTATGTGCTAG	3.76
TCAAGCCTCAGGCCTCACACTGTGCTA	-1.11
GACGATTTCAGTCTCGTGACGTGCTAG	2.29
AAGCAAAAATGATTGGTTGAGTGCTAG	-0.573
AGAGTCACCCATCTCAACAAGTGCTAG	1.56
GACCGTCTCCTTCTCCTGACGTGCTAG	3.24
GAAGGACTGCTTTTCCTGACGTGCTAG	-0.151
TCTGTTTCCTCTTTCTTTGCGTGCTAG	5.52
TCAGGTGTCTTTTGTGGAACTGTGCTA	0.0464

Sample 5 — method: RNA Bind-n-Seq; form: RNA; medium: in vitro; concentration: not given; relative to: input RNA pool; reading: higher = stronger binding
Target: RING finger protein unkempt homolog, zinc fingers 1-6, GST-SBP tag (UNK, Homo sapiens, UniProt Q9C0B0, residues 30-357)
Setting: RNA with constant flanks, human and mouse sites, ends assumed
All sequences stand within: GGGAGUUCUACAGUCCGACGAUC … CAACAGAGGAUUGAGCAUCA
Residues (chain): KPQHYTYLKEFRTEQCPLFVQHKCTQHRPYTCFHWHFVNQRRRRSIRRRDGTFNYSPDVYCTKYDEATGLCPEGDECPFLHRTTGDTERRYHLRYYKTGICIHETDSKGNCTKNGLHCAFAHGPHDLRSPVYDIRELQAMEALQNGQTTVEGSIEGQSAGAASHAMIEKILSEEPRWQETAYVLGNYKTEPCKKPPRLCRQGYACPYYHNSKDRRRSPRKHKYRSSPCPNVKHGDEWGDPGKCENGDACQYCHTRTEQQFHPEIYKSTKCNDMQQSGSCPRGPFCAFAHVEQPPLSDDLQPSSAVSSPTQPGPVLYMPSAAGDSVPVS
Oligonucleotide	bound/input enrichment
UAUGAUUUGGCUGGUUCGUGUAGAGGGGUCAAGGUCAUGUUUAAUGGAAAGAAAUUGCCUGUAAAUGGAUUUCGCAGUUAUGUAGAUCUUUAUGUGAAAGACAAAUUGGAUGAAACUGGG	0.482 ratio
GCUGAGGGAGUCGACUUAAUUAAGGUCUUCGCAAAAACAGAAGCACAGAGAGGAGCAUAUAUAGAAUUAGCACUUCAAACUUAUCAAGAAAUAGUUACCAGUCAUUCCGCAGCAUCCUGA	4.66 ratio
GGAUUUAGAAGCCAAGUAAAUGUCAUUGGGAAGGAGAGCUACCACCACUGAGUGCUGAACAGUAAACUCAUUUUUCAGAGUUAAAAAAUUAUUUAAAAAAACAAGAUGGGGACUCCUGGU	1.27 ratio
UUACAGUACCUUUACCAGCAUCGCAGCUUUCCUUGCCUAAUUUUGGAUCUACAGGGCAACCUCUAAUUGCUUUGCCUCAGACUCUUCAGCCCCCAUUACAGCAUACCACUCCCCAAGCAC	0.424 ratio
AUGCUUGGUUGUAAGACACCAAUAGGAAAACCAGCCACUGCAAAACUUUAAUAAUCAACAAAUAGUUAUGGAAAAUUCGGUCACGUAAUUACUCUCAUCGAAGGACUCAUUACAACAAAC	5.14 ratio
GCUGCCAUGGCUGCAAGACCUCAUUCAAUUGAUGGGAGAGUAGUUGAGCCAAAACGUGCUGUAGCAAGAGAGGAAUCUGGAAAACCAGGGGCUCAUGUAACUGUGAAGAAGCUGUUUGUU	0.21 ratio
CAUUGUCCAGCAUCAGGUAUACGAGGGACAGUGUAUCCAGUUGUUUAUGUUGAUGACAGUGCAAUUUUGGAUUGCCAGUUCAGUGAGUUUUAUCAUACGCCUCCACCUGGUUUUGAAAAA	0.0869 ratio
GAGCAGGGUGACAUGGCUGGCAAUUCUGCUUUAUAAAAUCGUGUCUCUAAAACUGUGUUCAUGUGUCUAGGAAGUAUUUAAUAAACUUGUGUAGAAACUUUUUGUGGUUGGGCCCUGGGA	2.2 ratio
CUUUUUUACACCAUCUUCUGUUAUUCAUUGCUUUUGAAGAGAAGCAUAGAAGAGACUUUUUAUUUAUUCUAGAAUUGCAGAAAUGACUACACUGUGCUAUACCAGAGAAUUCCAGUAGAA	0.603 ratio
UUCAAUCCAUUGAAAGCAUCCGGGGAUGGAGAAUCACUGGAUGAAGAUUCUGAAUUCACAUUAGCCUCUGAUUUUGAAAUUGGACACUUUUUCCGUGAGCGGAUAGUCCCGCGGGCUGUG	0.514 ratio
UGGCCAUAUUUCCCUAGACGUUAUCCUCUGCCUUGUCAGUUUGUUUGUCUGUGGCUUUUUUUUAGGGGAGGGGGAAGAGAUGGGCAGCUGUAACAAGUAGCCCAGAUAGAUCUAUGGGUG	1.88 ratio

Single results of other studies
Molecule	target	test	test system	conditions	scale	measurement	value
PhoQ, residues 284 288 289 292 302 303 ASHLAV	PhoP, residues 12 14 15 18 19 NQFFI (Escherichia coli, UniProt P23836)	Sort-seq, item: YFP reporter	E. coli	PhoQ-PhoP variant library, with: 10 µM Mg2+	relative to: high Mg2+ state, higher = stronger signaling	fold induction	2.59
